Published values from different studies.
Each line is one published result; not all experiments were run side by side. “And” joins repeats or separate records; there may be more than shown.
Target: Mitogen-activated protein kinase 11 (MAPK11, Homo sapiens, UniProt Q15759)

CNC(=O)C[C@H](Cc1ccc(C#N)cc1)NC(=O)c1cc(-c2ccc(CN[C@H](C)c3ccc(C)cc3)o2)ccc1Cl
activity vs control (enzyme activity, inhibitor; 1 µM): 93%

CN1CCN(Cc2ccc(-c3ccc(CO[C@H]4CCC[C@@H]4NC(=O)c4cc(-c5cnn(C)c5)cnc4N)cc3)cc2)CC1
inhibition (enzyme activity, inhibitor; 0.1 µM): 9%

Cc1cccc(O[C@H]2CCC[C@@H](C(C)CNCc3ccncc3)C2)c1 (relative stereo)
inhibition (enzyme activity, inhibitor; 10 µM): -5%

Nc1nc(Nc2ccccc2)sc1C(=O)c1ccccc1
remaining activity (enzyme activity, inhibitor; 10 µM): 47%

COc1cc(Nc2nccc(-c3cnn4nc(OC)ccc34)n2)cc(C(F)(F)F)c1
remaining binding (binding, competition with immobilised ligand; 1 µM): 100%

COc1c(Cl)cccc1Nc1c(-c2ccncc2C#C[C@@]2(C)CCCN2C(=O)/C=C/CN(C)C)[nH]c2c1C(=O)NCC2
remaining binding (binding, competition with immobilised ligand; 3 µM): 27%

Nc1ncc2c(n1)-c1c([nH]c3ccc(C4=CCOCC4)cc13)CCC2
remaining binding (binding, competition with immobilised ligand; 1 µM): 100%

CN1CCN(Cc2ccc(NC(=O)c3cccc(C#Cc4cnc(N)c5ncccc45)c3)cc2C(F)(F)F)CC1
remaining binding (cell-free assay, competition with immobilised ligand; 50 nM): 70%

COc1c(OCCCN2CCOCC2)ccc2c1N=C(NC(=O)c1cnc(N)nc1)N1CCN=C21
remaining activity (kinase activity, inhibitor; 1 µM; baseline: untreated control): 99%

CNC(=O)C1CCN(c2cc(C)c(F)cc2NC(=O)c2ccc(-c3cc(O)ccc3C)c(C)c2)CC1
remaining binding (binding, competition with immobilised ligand; 1 µM): 89%

Cc1ccc(-c2c(/C=C(\C#N)C(=O)NC(C)C)n(CCCO)c3ncnc(N)c23)cc1
remaining binding (cell-free assay, competition with immobilised ligand; 1 µM): 83%

Nc1ncc(-c2cc(-c3cnn(CC(F)(F)F)c3)ncc2F)nc1C(=O)NC1CNCC(F)C1 (stereo not shown)
remaining activity (enzyme activity; 1 µM; baseline: DMSO control): 94.2%

NC(=O)C[C@H]1CCc2sc3ncnc(O[C@H]4CC[C@H](N5CCOCC5)CC4)c3c21
inhibition (enzyme activity, inhibitor; 10 µM): 5%

C=CC(=O)Nc1cccc(-c2cnc3[nH]cc(C(=O)NC(C)(C)C)c3n2)c1
inhibition (kinase activity; 0.1 µM): 3% and 0%

O=C(Cc1ccc(OCc2ccccc2)cc1)NC1(C(=O)O)CCN(C(=O)c2ccc(-c3cccc(Cl)c3)cc2)CC1
activity vs control (enzyme activity, inhibitor; 10 µM): 108%

Cc1cccc(-c2ccc3nc(NC(=O)C4CCCO4)nn3c2)c1 (stereo not shown)
remaining activity (enzyme activity, Dundee kinase panel; 10 µM): 91%

COc1ccc(NC(=O)Nc2ccc3c(c2)C(=O)N(C(C)CO)CC(C)C(CN(C)Cc2ccc4c(c2)OCO4)O3)cc1 (stereo not shown)
remaining binding (binding, competition with immobilised ligand; 10 µM): 87%

C=CC(=O)N1CCc2ccc(-n3c(=O)ccc4cnc5ccc(-c6cnn(C)c6)cc5c43)cc21
remaining binding (KINOMEscan; 1 µM; baseline: DMSO control): 86%

Cc1cnc2nc1Nc1cccc(c1)COC/C=C/COCc1cc(ccc1OCCN1CCOCC1)N2
remaining binding (binding, competition with immobilised ligand; 0.1 µM): 100%

CNC1C[S+]2CC[S+]3CC[S+](C1)[Ru-4]321([N]=C=S)[n]2c3ccc(OC)cc3c3c4c(c5cc(F)c[n+]1c5c32)C(=O)NC4=O (stereo not shown)
remaining binding (KinomeScan; 0.1 µM; baseline: untreated): 83%

Cc1ccc(C)c(-c2ccc3nc(NC(=O)C4CCCCC4)nn3c2)c1
remaining activity (enzyme activity, Dundee kinase panel; 10 µM): 79%

C=CC(=O)N1CCCC(n2c(=O)c3ncccc3n(Cc3ccc(Oc4ccccc4)cc3)c2=O)C1 (stereo not shown)
remaining binding (cell-free assay, competition with immobilised ligand; 1 µM): 87%

Some of these lines once more:
NC(=O)C[C@H]1CCc2sc3ncnc(O[C@H]4CC[C@H](N5CCOCC5)CC4)c3c21
inhibition (enzyme activity, inhibitor; 10 µM): 5%
